Measured values from different studies.
Every numbered part comes from another study and shows a few of its results, in no order. Changes are numbered by the printed parent chain.

Block 1
Target: CCNB2, cyclin fold, Cln2 fusion (human)
Technique: yeast growth competition, sequencing
Medium: yeast
Notes: weak parent motif
Reference: not given
Direction: higher = stronger binding
Parent: FZR1 docking peptide (human); QDYERRLLRQIVI; partner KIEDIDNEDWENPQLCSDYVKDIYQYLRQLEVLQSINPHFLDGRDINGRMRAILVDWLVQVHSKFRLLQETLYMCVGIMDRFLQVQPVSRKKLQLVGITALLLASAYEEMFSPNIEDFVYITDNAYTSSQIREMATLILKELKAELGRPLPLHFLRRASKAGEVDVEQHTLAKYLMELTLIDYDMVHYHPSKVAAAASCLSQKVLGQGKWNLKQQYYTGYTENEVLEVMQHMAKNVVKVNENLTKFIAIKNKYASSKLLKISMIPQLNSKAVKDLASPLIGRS
Variant | normalised enrichment score
Q10A | 0.318
R6A | 0.514
R5A L7A | 0.326
I11A | 0.615
R9A | -0.452
L8F | 0.0335
E4A | 0.57
R5K L8F | 0.34
D2A | 0.203
I13A | 0.327

Block 2
Target: Ras GTPase-activating protein-binding protein 1, C-terminal RGG region (G3BP1, Homo sapiens, UniProt Q13283)
Chain of UniProt Q13283 (whole entry, looked up): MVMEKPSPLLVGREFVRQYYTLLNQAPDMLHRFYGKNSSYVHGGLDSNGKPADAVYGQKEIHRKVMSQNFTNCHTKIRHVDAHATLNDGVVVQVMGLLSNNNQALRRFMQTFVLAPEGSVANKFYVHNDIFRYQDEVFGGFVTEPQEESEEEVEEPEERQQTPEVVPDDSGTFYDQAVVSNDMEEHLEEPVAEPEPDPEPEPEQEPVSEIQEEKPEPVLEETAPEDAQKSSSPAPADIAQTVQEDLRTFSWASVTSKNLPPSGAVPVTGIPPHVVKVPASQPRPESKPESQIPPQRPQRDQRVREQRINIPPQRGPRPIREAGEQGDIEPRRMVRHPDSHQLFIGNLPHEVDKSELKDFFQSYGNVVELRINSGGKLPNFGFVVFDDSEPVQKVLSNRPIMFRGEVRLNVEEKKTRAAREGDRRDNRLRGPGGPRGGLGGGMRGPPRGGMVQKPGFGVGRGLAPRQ
Technique: RNA Bind-n-Seq
Form: RNA
Medium: in vitro
Concentration: 1 µM
Notes: whole 134-nt RNA, ends assumed
Together with: 150 mM KCl
Reference: input library
Direction: higher = stronger binding
Strand | log2 enrichment
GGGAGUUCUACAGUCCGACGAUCCAAGUCCUGUGCUACACAUCGUAUGUACCGAAUCGGUUUGGAAAAAGGUUUUUGGAAAGUAUUAUGUUACGCCGUUCGGAUCUGCACUUCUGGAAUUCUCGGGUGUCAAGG | -1.81
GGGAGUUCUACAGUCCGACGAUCACCAUGCAGGUGGGCAUCUUUGGGAAGUGGGGCAAGGGGGGGAUAGGGAGGGGAGUAACACUUUGGGAACAGGUGGUCCCAGGUCGUUUCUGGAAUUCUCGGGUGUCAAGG | 1.98
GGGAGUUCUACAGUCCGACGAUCUCAAGUCCUGUGCUACACAUCGUAUGUACCGAAUCGGAAGGGGAAGGGGAAGGGAAAGUAUUAUGUUACGCCGUUCGGAUCUGCACUUCCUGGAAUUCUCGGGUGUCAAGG | 1.38
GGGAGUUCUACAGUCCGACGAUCCAAGUCCUGUGCUACACAUCGUAUGUACCGAAUCGGUGGAAAAAAAGGUUUUUGGAAAGUAUUAUGUUACGCCGUUCGGAUCUGCACUUCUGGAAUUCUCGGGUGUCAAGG | -1.68
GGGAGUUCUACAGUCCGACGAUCUGUUUUAAGGUUGCCAACUUUGCAACAAUGGAAGAUGAAGAAGAGCUAGAAGAGCGUCCUCACAAGGACUGGGAUGAGAUCAUUCCAGAGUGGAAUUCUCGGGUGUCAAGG | -2.03
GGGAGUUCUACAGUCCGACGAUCGCGGACCGAGAAAGUCGUUACGAGGAAGAAGAAGAACAAAGUCGAAGUAUGAGCCGGAAGAGGAAGGCAUCUGUGCACAGUUCGGGCCGUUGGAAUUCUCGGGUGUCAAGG | 0.0141
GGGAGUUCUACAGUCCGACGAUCGUCCUGUGCUACACAUCGUAUGUACCGAAUCGGGUUUUUUUGGGAAAAAAAGGGAGGGAAAGUAUUAUGUUACGCCGUUCGGAUCUGCACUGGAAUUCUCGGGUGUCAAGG | -0.105
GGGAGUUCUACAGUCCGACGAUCACCAUGCAGGUGGGCAUCUUUGGGAAGUGGGGCAAGGGGGGGAUAGGGAGGGGGGUAACACUUUGGGAACAGGUGGUCCCACGUCGUUUCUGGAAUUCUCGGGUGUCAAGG | 1.73
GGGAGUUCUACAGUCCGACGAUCCAAGUCCUGUGCUACACAUCGUAUGUACCGAAUCGGGAAAGGGGAAAGGAAAGGGGAAAGUAUUAUGUUACGCCGUUCGGAUCUGCACUUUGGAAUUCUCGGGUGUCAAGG | 0.187
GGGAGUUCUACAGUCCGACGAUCGCAGGAAGUAAAAACAAAUGGAAAUGCUUCCGAUAGUGGCAGGGGUGGGGGUUGCUAAGGAAAGGGUGGGAUGGGAGUGGGUAAAGAGUUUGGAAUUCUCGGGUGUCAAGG | 1.96
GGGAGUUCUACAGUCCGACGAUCCUCAAGUCCUGUGCUACACAUCGUAUGUACCGAAUCGGGUUGGUUGGGGUUGGGAAAGUAUUAUGUUACGCCGUUCGGAUCUGCACUUCCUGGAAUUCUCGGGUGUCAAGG | 0.421
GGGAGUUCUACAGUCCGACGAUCCAAGUCCUGUGCUACACAUCGUAUGUACCGAAUCGGCCCGGGCCCGGGGCCCGGGAAAGUAUUAUGUUACGCCGUUCGGAUCUGCACUUCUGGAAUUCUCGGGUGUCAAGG | -1.98
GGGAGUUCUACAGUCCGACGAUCUCAAGUCCUGUGCUACACAUCGUAUGUACCGAAUCGGAAAAAGGAAAAAGGAGGAAAGUAUUAUGUUACGCCGUUCGGAUCUGCACUUCCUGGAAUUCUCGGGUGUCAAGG | -1.35
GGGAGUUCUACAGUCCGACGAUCGUCCUGUGCUACACAUCGUAUGUACCGAAUCGGGGAAAGGGGUUUGGGGUUUUUGGGGAAAGUAUUAUGUUACGCCGUUCGGAUCUGCACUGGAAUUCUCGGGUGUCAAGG | 3.12

Block 3
Target: RING finger protein unkempt homolog, zinc fingers 1-6, GST-SBP tag (UNK, Homo sapiens, UniProt Q9C0B0, residues 30-357)
Technique: RNA Bind-n-Seq
Form: RNA
Medium: in vitro
Concentration: not given
Notes: RNA with constant flanks, human-mouse chimeric sites, ends assumed
Reference: input RNA pool
Direction: higher = stronger binding
Construct (chain): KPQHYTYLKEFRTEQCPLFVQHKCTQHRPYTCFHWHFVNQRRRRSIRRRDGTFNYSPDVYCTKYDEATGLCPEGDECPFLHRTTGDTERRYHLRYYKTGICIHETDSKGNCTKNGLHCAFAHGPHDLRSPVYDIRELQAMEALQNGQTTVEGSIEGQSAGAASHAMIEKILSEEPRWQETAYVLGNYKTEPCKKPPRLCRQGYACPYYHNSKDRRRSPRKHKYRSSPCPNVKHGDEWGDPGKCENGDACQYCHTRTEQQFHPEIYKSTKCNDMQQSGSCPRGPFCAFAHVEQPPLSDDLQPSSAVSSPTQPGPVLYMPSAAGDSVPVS
Strand | bound/input enrichment [ratio]
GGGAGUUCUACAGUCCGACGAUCGCUGAAAAUGAAGAAGAGGCAGCUGAUGUCUGGUACAACCUGGGGCAUGUAGCUGUGGGAAUCGGAGAUACAAAUUUGGCCCACCAAUGCUUCAGGCUGGCCCUGGUCCACAACAACCACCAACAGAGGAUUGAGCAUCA | 0.136
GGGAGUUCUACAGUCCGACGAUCAUCCCAAUUAUGGACACCGGUGAAAACCCAGAGGUUCCCUUCCCCCGGGACAUGAUUGACUUAGAGGCCAAUUUUGAGAAGAUUGAAAAUGAACUGAAGGAAAUCAACACAAACCAGGAACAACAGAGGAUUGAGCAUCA | 0.264
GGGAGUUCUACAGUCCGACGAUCCUGUGACCACAAGAUCCUGAAGUUUGAGCAGCUGAAGUUGACUCCCUCUCCUUGCCUGAACCCCCCCCCACUGCCCCCCCAUCCCCCGCAGAAUUCCGAGAUGUUGCCUCUGCACGGUUCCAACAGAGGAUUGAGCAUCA | 1.32
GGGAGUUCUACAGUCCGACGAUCGCAGGAUCUUCUAAGUACCAGUGGGACAUUAUGAAAUCCCUUGGGCUCUCUGAUGACGAGAUAGUAAAAUUUUCUGAAGCAGAGCACUGGCUUGAUUAUUUCCCACCACUGGCCGUUCAGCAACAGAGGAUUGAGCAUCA | 0.368
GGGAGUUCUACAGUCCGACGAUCGGGGAGAAACCUUAUGAGUGUGUGCAGUGUGGGAAAUCCUACAGUCAGAGCUCAAACCUCUUCAGACAUCAGAGACGACACAAUGCAGAAAAACUUCUGAAUGUUGUGAAGGUUUAAGAACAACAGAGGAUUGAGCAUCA | 0.175
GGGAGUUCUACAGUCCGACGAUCGAUAGGAAAAACUUGUUGGAGACCCGCUUGCAUGUCACUGGUAGAGACCUGAGGUGUCAAAUAGCUGAAACUUUCGGAUUUCAAGAAAAUUACAUCAAGAUCGUAAUAAAUAAGAAACAGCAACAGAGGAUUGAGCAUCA | 0.643
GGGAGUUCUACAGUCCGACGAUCCCCCAAUACCAUUUGCAGGUCUGGAACUGCACUCUCUUUUUUAAAAAACAUGUAUACAUUUUAGGGCUGUAGAUUUAUUUUCCUGGUUUUGUUUUUCUUGCUUAUUCUUUGAGCACAGAACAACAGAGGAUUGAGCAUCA | 2.59
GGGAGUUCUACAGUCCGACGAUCGCGGCAGAAUCAUGGAGGACAUAAUGCACUUGCCCAGAGCGCGCGUCAACGCCAGCAUGCUAGCUCAGUAUAUCGACCGGCCCGUGUGCUUCGUGGGGAAGCUGGAAAAGAUUCAUCCCACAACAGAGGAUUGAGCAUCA | 0.0995
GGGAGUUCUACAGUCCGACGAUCCGCUUGGAUGAGGCGGGUGUCACAGAUGAAGUGCUGGAUUCUGCCAUGCAAGCCUUCCUUCUGGAGGUCAUUGUUAAGCAUGGGGAGCCGGCACCUUAUUUAUGUAACAAAGAUCCGUUUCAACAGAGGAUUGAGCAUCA | 0.0663
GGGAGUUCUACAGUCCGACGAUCGGACAUCUGUCAAAUUGUUAUGUUCCUGUGAAACAAGUGAACACUCUGAUACACUUCAUCUGCUUGUACAUCUGUAUUUGUAUAAUAUGUAAAUAUGUUAAUCCAAGAUGAAUUCAACUUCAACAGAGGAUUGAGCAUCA | 0.118
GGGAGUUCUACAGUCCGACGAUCCUUAAUGUUAAUAUUUUUGAAUAAAUGAAGCUAAAAUUUUGCUUUCUGGUACUACAUGCAUUAAUAAAAGGUUAAGUUUUGUUUUCCACUGAAGUACUAUUUAACAUCUCAGAAAAAAACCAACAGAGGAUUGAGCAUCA | 0.476

Block 4
Target: Prothrombin, mature alpha-thrombin (F2, Homo sapiens, UniProt P00734)
Technique: aptamer microarray, sandwich
Form: DNA with 2'F-ANA
Medium: in vitro
Concentration: 200 nM
Notes: whole 15-mer aptamer, many near background
Together with: Cy3 exosite-II aptamer, 400 nM
Direction: higher = stronger binding
Strand: GGTTGGTGTGGTTGG
Modification | mean fluorescence intensity
2'F-ANA at 1 2 4 6 9 10 11 12 13 14 | 46.1 a.u.
2'F-ANA at 3 5 7 8 10 12 14 15 | 70.8 a.u.
2'F-ANA at 1 3 4 5 6 8 11 12 13 14 15 | 63.7 a.u.
2'F-ANA at 1 2 3 7 9 11 12 13 14 15 | 83.9 a.u.
2'F-ANA at 2 3 4 5 7 8 10 12 13 15 | 56.1 a.u.
2'F-ANA at 3 4 5 7 9 15 | 117 a.u.
2'F-ANA at 1 3 5 7 8 9 10 11 13 15 | 48.8 a.u.
2'F-ANA at 3 4 7 9 10 13 14 | 214 a.u.
2'F-ANA at 2 5 7 13 14 15 | 49.1 a.u.
2'F-ANA at 7 12 13 | 821 a.u.
2'F-ANA at 2 9 11 12 14 | 172 a.u.
2'F-ANA at 2 3 6 8 9 10 11 12 13 14 15 | 191 a.u.
2'F-ANA at 2 4 5 6 8 13 | 55 a.u.
2'F-ANA at 1 2 3 5 6 7 11 12 15 | 82.7 a.u.
2'F-ANA at 4 5 6 7 9 10 11 13 | 52.4 a.u.
2'F-ANA at 1 4 8 10 11 12 13 14 | 44.2 a.u.
2'F-ANA at 2 9 13 | 344 a.u.
2'F-ANA at 1 4 6 8 10 11 | 52 a.u.
2'F-ANA at 4 5 6 7 9 10 11 12 13 14 | 46.9 a.u.
2'F-ANA at 2 4 6 7 8 9 11 12 13 14 15 | 83.6 a.u.
2'F-ANA at 1 2 3 4 5 6 7 9 11 | 57.2 a.u.
2'F-ANA at 1 2 3 4 8 13 | 152 a.u.
2'F-ANA at 1 4 5 6 7 9 10 11 12 13 15 | 48.1 a.u.
2'F-ANA at 1 5 6 7 8 13 14 15 | 55.3 a.u.

Excerpt of the above (block 3):
Strand | bound/input enrichment [ratio]
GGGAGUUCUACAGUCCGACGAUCGCAGGAUCUUCUAAGUACCAGUGGGACAUUAUGAAAUCCCUUGGGCUCUCUGAUGACGAGAUAGUAAAAUUUUCUGAAGCAGAGCACUGGCUUGAUUAUUUCCCACCACUGGCCGUUCAGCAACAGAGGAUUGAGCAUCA | 0.368
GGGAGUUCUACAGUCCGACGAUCCUGUGACCACAAGAUCCUGAAGUUUGAGCAGCUGAAGUUGACUCCCUCUCCUUGCCUGAACCCCCCCCCACUGCCCCCCCAUCCCCCGCAGAAUUCCGAGAUGUUGCCUCUGCACGGUUCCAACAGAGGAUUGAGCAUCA | 1.32
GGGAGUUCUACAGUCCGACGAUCGCGGCAGAAUCAUGGAGGACAUAAUGCACUUGCCCAGAGCGCGCGUCAACGCCAGCAUGCUAGCUCAGUAUAUCGACCGGCCCGUGUGCUUCGUGGGGAAGCUGGAAAAGAUUCAUCCCACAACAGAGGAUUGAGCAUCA | 0.0995
